Published values collected from several papers.
A part holds a random share of what one study measured. Positions count from the first letter of the parent shown.

Study 1
Target: RNA binding protein fox-1 homolog 2, RRM domain, GST-SBP tag (RBFOX2, Homo sapiens, UniProt O43251-10, residues 100-194)
Method: RNA Bind-n-Seq
Form: RNA
Medium: in vitro
Tested at: 365 nM
Setting: natural RNA segment, single round, ends assumed
Relative to: no-protein control
Direction: higher = stronger binding
Endpoint: RBNS enrichment (R)
Constant ends, left off below: GGGAGUUCUACAGUCCGACGAUC … UGGAAUUCUCGGGUGCCAA
Residues (chain): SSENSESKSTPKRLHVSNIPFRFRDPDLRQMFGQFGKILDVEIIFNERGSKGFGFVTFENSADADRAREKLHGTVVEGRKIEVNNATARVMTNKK
AAAACUACAUAGUCUUUCCUUAUUUUAUUUAGUAUGACAUUGUCAAUAGUAAUAAGGUAGCAUUUCUAGUCUUCCUCAUUACAAAAUGUAGCUGUUUUCUAAGUAGGAAA: 0.268
UUUAUAAGUGCAAUUUAAUUUGUAAAUAGAGUUUGAAUCAAAGUAUCACAAAAUACUGCUUCAAGAUUUAAUUUUAAAUCUGCUAAUUUAAGGGAUAUUGGGAAAAGUUU: 0.455
UGUUCUUGCCAUUUGCCAGCCUAAUGCGCAUGCUUUCUGCCUCUGGUAACAGGAGUGAGUGAGCCCCUCAGACCUGCACUCUGGGUGUCUCCUGCUUUCAAAGGUUCUUA: 2.62
AGGUUCAUGUAAGAGUAUCGUGGUGUAAAUAUAAUGGUUUCACAGCUGUUUGAAUUUUUCUUUUCCUGUGCCAGAUAUAGAAUGCAGUCAACCCUUUUUCAGUAACUUAU: 0.784
ACAGAUGCCCUCAGAAUUGGGGCAUGGGAGGGGGGCUGGGGGACCCCAUGAUUCAGCCACGGACUCCAAUGCCCAGCUCCUCUCCCCAAAACAAUCCCGACAAUCCCUUA: 0.244
CCCCAUCGCUACCAUUUGGCCAAACAACCGGCUACAAUGCUCUUCCUCUUCUGGAAUGUUGCUGACCCAGGCCGUGGACUUGGCUGAGCACUGUUAGACACACACAGACC: 0.667
UUCACUCUCUUCCUCCCACCCCCAAGACUGAGUUUUGGGGGGCAAGGUGGAGAGAGCUGGCAACUACUGUGAGCAAGUCCCCUAGCCCCUGACCAGCCUCCUCCCAUGAC: 0.211
UAAUGAUGGGGAUGCAUUCUGAGAAAUGUGUCAUUAGGCUGUUUUGUUGCUGUGCCAACAUCCUAGAUUGUACUUACACAACCUACAUGGUAUAGCCUACUACACACCUG: 0.444
UUGAUUCAGCCUGUUUGGCGUUUCCCAGAGUCAUCUGAUUGGACAGGCAUGGGUGCAAGGAAAAUUAGGGUACUCAACCUAAGUUCGGUUCCGAUGAAUUCUUAUCCCCU: 0.471
GUGUAUAAGCAUACAUGGGAAUUUUUCUGAAUGUAAGCAGUUUUGAUGUGUCUGUAUAUCAAUCUGUAUCUACAUUUGAUGGACUGAGUAAGAAUGUUGCAUGUGAGAGA: 7.89
ACAAUGUUAGCUGAAAGCAUGUUUAUUUUUUAAGGAGCUCCUGCUCUUCUGCACAUUUCCAUAUCUAGAGAUGGAUAGUCCUGAACUUGACGUCACACCCACAGGUGAAA: 22.8
CCAGAAAGGGAGGGCCACCGCUUUGCCCCCUGCUUUUACCCUUCCUUCUGGGUGCUCUACACCUCAGGUUACCAGGCCUGAGGCAUCUCAGCCAAGCUUGUUUCCUGCUC: 0.512

Study 2
Target: POU, POU domain (Salpingoeca helianthica)
Method: Spec-seq
Form: double-stranded DNA, one strand shown
Medium: in vitro
Tested at: not given
Setting: whole probe, mean of replicates
Relative to: not given
Direction: lower = stronger binding
Endpoint: relative binding energy
Constant ends, left off below: GAGTCGTCTCGTCAGCAC … CCGTAGAGCACTCAGGTC
Target sequence (chain): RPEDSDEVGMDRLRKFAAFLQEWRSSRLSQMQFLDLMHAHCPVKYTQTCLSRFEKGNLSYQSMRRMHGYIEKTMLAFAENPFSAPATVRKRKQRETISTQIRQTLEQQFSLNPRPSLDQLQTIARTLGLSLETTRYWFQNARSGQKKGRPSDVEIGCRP
ATGCAACC: 1.11 ln ratio
ATTCTTAT: 0.859 ln ratio
ATGCGTAA: 0.747 ln ratio
ATGCAGGC: 1.32 ln ratio
ATGCCCTT: 1.23 ln ratio
ATGCGAGG: 1.2 ln ratio
ATGGTTAT: -0.203 ln ratio
CCTGTAAT: 0.467 ln ratio
ACGCTAAT: 0.45 ln ratio
GAAGTAAT: 0.7 ln ratio
ATGCTGTT: 1.11 ln ratio
ATGCCTTA: 1.08 ln ratio
ATCTGAAT: 1.08 ln ratio
ATGCCCGC: 1.34 ln ratio
ATTCGGAT: 1.36 ln ratio
GGATTAAT: -0.167 ln ratio
ATAAAGAT: 0.543 ln ratio
ATGCGCCC: 1.24 ln ratio
CTTGTAAT: -0.262 ln ratio
ATTGCTAT: 0.748 ln ratio
TCAGTAAT: 0.53 ln ratio
ATGCGGTG: 1.34 ln ratio

Study 3
Target: Ras GTPase-activating protein-binding protein 1, C-terminal RGG region (G3BP1, Homo sapiens, UniProt Q13283)
Chain of UniProt Q13283 (whole entry, looked up): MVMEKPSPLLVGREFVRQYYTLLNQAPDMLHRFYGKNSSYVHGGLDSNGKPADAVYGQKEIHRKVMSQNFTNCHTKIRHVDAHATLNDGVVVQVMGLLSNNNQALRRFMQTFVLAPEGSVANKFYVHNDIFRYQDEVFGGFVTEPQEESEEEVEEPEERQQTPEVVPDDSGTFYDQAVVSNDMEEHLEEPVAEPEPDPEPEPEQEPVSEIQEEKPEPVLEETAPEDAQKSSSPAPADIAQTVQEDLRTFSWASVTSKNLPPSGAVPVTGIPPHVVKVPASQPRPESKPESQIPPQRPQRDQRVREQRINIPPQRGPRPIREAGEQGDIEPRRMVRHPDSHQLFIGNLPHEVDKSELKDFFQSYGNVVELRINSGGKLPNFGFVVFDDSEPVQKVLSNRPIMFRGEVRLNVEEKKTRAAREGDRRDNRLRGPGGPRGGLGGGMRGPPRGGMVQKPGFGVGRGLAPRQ
Method: RNA Bind-n-Seq
Form: RNA
Medium: in vitro
Tested at: 1 µM
Setting: whole 134-nt RNA, ends assumed
With: 150 mM KCl
Relative to: input library
Direction: higher = stronger binding
Endpoint: log2 enrichment
Constant ends, left off below: GGGAGUUCUACAGUCCGACGAUC … UGGAAUUCUCGGGUGUCAAGG
UUUUUUGUAGUAGGGAGAUCCUUGAUCAUCAGGAUGGUAAUGUAGAAGAUGAUGGGCUUACAGGACUCCUAAGGCUUGCAACAAGUGUUG: 0.0285
CCUGUGCUACACAUCGUAUGUACCGAAUCGGGGUUUUUUUGGGGAAAAAGGGGAAAGGGGAAAGUAUUAUGUUACGCCGUUCGGAUCUGC: 0.502
CAAGUCCUGUGCUACACAUCGUAUGUACCGAAUCGGGGCCCGGCCCGGGCCCGGGGAAAGUAUUAUGUUACGCCGUUCGGAUCUGCACUU: -2.16
UUGGACUUGGAGCAUCUGCUCAGUGAGUCUCCAGAAGGAAGUCCCUUCCGAGAUAUGGAUGAUGGAAGUGAUUCCCUUGGGGUGGGAUUG: -1.53
UGUGCUACACAUCGUAUGUACCGAAUCGGGGCCCCCCCGGGGCCCCCCCGGCCCCCCCGGGGAAAGUAUUAUGUUACGCCGUUCGGAUCU: -2.52
UCCUGUGCUACACAUCGUAUGUACCGAAUCGGAAAAAGGGGAAAAAGGGGAAAAAGGGGAAAGUAUUAUGUUACGCCGUUCGGAUCUGCA: -0.514
CACAGACAACACAAACCCACACAGACACAGAGGGAAGGGGUUGGGAUGGGGACAGGGUGCACAGCAGGGCGGGGUAGGACCCCAGCCCCU: -0.386
UGGCCCUGGUGGCAUGCGGGGAGGAAGAGGUGGCCUCAUGGAUCGUGGUGGUCCCGGUGGAAUGUUCAGAGGUGGCCGUGGUGGAGCCAG: 3.48
UAACUUUAGAGGAGGAUCUGAUGGAUAUGGCAGUGAACGUGGAUUUGGGGAUGGCUAUAAUGGGUAUGGAGGAGGACCUGGAGGUGGCAA: -0.779
GCAGGAAGUAAAAACAAAUGGAAAUGCUUCGGAUAGUGGCAGGGGUGGGGGUUGCUAAGGAAAGGGUGGGAUGGGAGUCGGUAAAGAGUU: 1.96
CCUGUGCUACACAUCGUAUGUACCGAAUCGGCCCCCCGGGGCCCCCCGGGCCCCCCGGGGAAAGUAUUAUGUUACGCCGUUCGGAUCUGC: -2.33
AAGUCCUGUGCUACACAUCGUAUGUACCGAAUCGGGUUUGGGUUUGGGAAAAAGGGAAAGUAUUAUGUUACGCCGUUCGGAUCUGCACUU: 1.3
CAAGUCCUGUGCUACACAUCGUAUGUACCGAAUCGGGUUUGGGUGGGAAAAAGGGAAAGUAUUAUGUUACGCCGUUCGGAUCUGCACUUC: 1.9
CCUGUGCUACACAUCGUAUGUACCGAAUCGGUUUUUUUGGGUUUUUUUGGGGUUUUUUUGGAAAGUAUUAUGUUACGCCGUUCGGAUCUG: -1.47

Study 4
Target: CCNA2, cyclin fold, Cln2 fusion (human)
Method: yeast growth competition, sequencing
Medium: yeast
Setting: weak parent motif
Relative to: not given
Direction: higher = stronger binding
Endpoint: normalised enrichment score
Parent: MASTL docking peptide (human); PMIAKNLMCELDE
PMIAKNLYCELDE [M8Y]: -0.252
PMIWKNLMCELDE [A4W]: 0.0623
PMIAKNLMCEYDE [L11Y]: 0.348
PMITKNLMCELDE [A4T]: -0.0827
PMIAKILMCELDE [N6I]: 0.41
PMIAKNLMCEEDE [L11E]: 0.061
PMIAKNLMCERDE [L11R]: -0.296
PMIAKNLMCRLDE [E10R]: 0.462
PMIRKNLMCELDE [A4R]: 0.645
PMIIKNLMCELDE [A4I]: -0.0808
PMIAKCLMCELDE [N6C]: -0.351
PMIAKNLMCMLDE [E10M]: 0.0997
PPIAKNLMCELDE [M2P]: 0.0402
PMIAKNLVCELDE [M8V]: -0.202
PMIAKNTMCELDE [L7T]: -0.32
PMIAKNLLCELDE [M8L]: 0.168
PMIAKNYMCELDE [L7Y]: -0.0748

Study 5
Target: Histone acetyltransferase KAT6A, both winged helices, GST fusion (KAT6A, Homo sapiens, UniProt Q92794, residues 1-181)
Method: protein binding microarray
Form: double-stranded DNA, one strand shown
Medium: in vitro
Tested at: not given
Setting: 8-mer, flanks averaged, mean of 2 arrays, mostly near background
Relative to: not given
Direction: higher = stronger binding
Endpoint: E-score
Residues (chain): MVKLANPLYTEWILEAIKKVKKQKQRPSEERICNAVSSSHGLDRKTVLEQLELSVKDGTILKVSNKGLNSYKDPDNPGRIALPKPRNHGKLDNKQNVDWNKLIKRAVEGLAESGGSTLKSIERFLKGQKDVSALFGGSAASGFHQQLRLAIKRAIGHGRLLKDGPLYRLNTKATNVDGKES
AACAATGG: -0.109
ATTCTGCA: -0.11
AAGCCTTA: -0.0206
GAATCTAA: 0.0331
ATGTTCCG: 0.138
AGCTTCGA: -0.188
GAGGTAAC: 0.0299
CATTTTGG: -0.0699
CCTATTCG: -0.0929
ACAGCCGA: 0.0975
ACCAGGGA: -0.293
CATCCTGG: -0.122
CCTGCGCA: 0.0972
CCTCGTGC: -0.0463
GCCGTTAC: 0.296
CGGGCATC: 0.0895
AGTTAACG: 0.148
GCATCTTA: -0.11
ATCTTGCG: 0.107
AAAACGGA: 0.128
ATGGAATG: 0.0187
TTCGGCAA: 0.067
GAACGTTC: -0.00209
GTCGGAAA: 0.161
